Published values of several laboratories.
Numbered parts are unrelated; each lists some results of a single study. Values joined by “and” are separate records of one study, mostly repeats; a detail may differ.
Chain of UniProt P29320 (whole entry, looked up): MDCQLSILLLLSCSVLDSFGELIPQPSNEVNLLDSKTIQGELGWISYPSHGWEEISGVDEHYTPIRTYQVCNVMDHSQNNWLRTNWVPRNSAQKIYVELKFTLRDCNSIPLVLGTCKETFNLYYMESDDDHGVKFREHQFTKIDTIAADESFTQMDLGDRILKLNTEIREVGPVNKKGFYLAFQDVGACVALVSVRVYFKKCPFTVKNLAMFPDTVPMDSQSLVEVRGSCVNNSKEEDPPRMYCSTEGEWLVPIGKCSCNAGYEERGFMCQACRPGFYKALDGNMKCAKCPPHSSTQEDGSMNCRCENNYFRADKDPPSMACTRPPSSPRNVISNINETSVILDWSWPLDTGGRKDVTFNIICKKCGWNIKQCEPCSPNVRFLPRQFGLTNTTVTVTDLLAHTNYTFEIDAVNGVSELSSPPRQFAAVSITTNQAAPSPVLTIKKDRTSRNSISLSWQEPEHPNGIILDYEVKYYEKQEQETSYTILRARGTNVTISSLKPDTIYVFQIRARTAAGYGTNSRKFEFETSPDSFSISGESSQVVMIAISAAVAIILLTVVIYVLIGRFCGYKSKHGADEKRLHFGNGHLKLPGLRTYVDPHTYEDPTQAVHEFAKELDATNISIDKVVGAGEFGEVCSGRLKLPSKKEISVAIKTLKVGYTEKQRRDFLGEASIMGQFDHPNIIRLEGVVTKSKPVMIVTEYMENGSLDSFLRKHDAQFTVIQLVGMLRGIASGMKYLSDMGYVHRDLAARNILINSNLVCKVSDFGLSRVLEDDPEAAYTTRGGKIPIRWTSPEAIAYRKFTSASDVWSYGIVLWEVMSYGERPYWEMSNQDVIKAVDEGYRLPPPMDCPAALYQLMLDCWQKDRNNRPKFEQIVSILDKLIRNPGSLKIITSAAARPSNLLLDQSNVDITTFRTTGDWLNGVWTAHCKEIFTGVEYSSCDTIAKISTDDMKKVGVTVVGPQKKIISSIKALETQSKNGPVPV
Chain of UniProt Q04759 (whole entry, looked up): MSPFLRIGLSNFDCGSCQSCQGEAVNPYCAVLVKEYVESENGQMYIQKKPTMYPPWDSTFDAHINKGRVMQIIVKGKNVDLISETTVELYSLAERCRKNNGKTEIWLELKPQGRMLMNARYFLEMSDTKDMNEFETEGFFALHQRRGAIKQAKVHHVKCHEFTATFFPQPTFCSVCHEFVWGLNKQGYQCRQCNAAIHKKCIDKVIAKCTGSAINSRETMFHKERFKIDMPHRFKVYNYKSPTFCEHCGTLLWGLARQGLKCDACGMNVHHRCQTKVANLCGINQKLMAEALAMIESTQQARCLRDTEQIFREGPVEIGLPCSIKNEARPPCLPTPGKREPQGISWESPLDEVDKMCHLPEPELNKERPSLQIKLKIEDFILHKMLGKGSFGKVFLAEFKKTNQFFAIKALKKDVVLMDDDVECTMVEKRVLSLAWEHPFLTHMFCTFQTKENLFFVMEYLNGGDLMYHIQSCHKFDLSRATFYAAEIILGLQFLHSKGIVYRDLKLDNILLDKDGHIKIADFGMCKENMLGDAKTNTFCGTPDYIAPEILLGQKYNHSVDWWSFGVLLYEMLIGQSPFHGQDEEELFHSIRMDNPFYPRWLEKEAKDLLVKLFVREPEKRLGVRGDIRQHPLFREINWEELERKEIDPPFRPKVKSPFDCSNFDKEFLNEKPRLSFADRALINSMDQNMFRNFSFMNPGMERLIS
Chain of UniProt P51817 (whole entry, looked up): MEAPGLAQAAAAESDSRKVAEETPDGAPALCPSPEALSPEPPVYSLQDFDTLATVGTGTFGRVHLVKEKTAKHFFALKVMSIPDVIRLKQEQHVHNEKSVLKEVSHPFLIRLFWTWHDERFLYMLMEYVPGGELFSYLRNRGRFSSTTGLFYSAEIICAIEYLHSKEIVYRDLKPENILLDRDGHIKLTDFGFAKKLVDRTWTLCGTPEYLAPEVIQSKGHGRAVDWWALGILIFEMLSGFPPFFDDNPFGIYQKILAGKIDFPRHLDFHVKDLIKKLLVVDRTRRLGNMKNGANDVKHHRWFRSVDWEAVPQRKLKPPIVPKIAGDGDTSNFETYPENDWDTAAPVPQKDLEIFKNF
Chain of UniProt Q15418 (whole entry, looked up): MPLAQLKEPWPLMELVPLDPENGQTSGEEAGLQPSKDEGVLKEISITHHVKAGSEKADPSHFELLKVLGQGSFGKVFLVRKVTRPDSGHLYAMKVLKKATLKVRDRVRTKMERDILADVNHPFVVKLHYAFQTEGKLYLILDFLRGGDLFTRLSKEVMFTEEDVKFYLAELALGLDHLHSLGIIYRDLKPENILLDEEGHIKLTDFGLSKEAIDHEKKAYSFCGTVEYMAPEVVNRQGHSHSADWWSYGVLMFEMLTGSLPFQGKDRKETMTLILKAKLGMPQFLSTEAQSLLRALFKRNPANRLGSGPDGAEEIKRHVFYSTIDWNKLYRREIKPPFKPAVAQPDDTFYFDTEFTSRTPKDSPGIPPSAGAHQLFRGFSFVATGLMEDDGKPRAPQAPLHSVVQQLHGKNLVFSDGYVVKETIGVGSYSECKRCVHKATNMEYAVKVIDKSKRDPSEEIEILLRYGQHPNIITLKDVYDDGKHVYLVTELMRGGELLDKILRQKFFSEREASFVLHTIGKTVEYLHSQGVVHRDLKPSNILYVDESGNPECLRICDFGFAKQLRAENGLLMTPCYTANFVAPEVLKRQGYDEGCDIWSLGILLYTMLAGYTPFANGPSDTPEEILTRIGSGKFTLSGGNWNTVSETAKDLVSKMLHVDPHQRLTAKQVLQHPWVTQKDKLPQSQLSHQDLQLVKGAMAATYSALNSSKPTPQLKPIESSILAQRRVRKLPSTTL
Chain of UniProt Q9HC98 (whole entry, looked up): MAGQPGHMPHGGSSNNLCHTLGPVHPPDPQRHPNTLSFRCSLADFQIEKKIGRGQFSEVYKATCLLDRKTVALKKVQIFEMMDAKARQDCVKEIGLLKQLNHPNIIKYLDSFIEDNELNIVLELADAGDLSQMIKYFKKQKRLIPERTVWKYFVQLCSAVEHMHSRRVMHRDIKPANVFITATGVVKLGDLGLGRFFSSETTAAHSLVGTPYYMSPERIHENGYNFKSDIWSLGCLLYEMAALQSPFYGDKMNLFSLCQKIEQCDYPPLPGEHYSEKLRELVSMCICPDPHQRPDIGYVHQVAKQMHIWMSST
Chain of UniProt Q9P1W9 (whole entry, looked up): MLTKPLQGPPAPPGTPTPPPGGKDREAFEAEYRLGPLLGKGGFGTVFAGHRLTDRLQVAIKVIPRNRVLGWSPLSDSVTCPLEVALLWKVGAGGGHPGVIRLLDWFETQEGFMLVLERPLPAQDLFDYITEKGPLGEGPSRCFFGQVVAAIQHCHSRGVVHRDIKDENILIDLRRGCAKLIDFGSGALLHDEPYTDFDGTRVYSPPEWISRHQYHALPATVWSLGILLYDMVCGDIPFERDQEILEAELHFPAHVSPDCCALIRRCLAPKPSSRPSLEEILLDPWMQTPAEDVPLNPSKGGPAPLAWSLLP

Series 1
SMILES: CCN1/C(=C/C=C2\CCCC(/C=C/C3=[N+](CC)c4ccccc4C3(C)C)=C2NCCCCCCCCN2CCC(Nc3nc4ccccc4n3Cc3ccc(F)cc3)CC2)C(C)(C)c2ccccc21
Cell line: U-87 MG
Concentration: concentration not given
Baseline: DMSO
| item | log2 fold change |
| --- | --- |
| UBA7 mRNA | -1.31 |
| CLDN14 mRNA | 3.32 |
| UGCG mRNA | 1.72 |
| SSC4D mRNA | -1.79 |
| CXCL3 mRNA | 2.46 |
| SH3BGR mRNA | 2.51 |
| BTN3A3 mRNA | -1.05 |
| ZNF644 mRNA | 0.884 |
| MGST3 mRNA | -1.06 |
| GK mRNA | 1.61 |
| HNMT mRNA | -1.38 |
| SLC19A3 mRNA | -1.08 |
| DTYMK mRNA | -1.35 |
| RIPOR3 mRNA | -1.05 |
| DPYSL3 mRNA | -0.92 |
| STMN1 mRNA | -1.74 |

Series 2
SMILES: CN(C1COC1)C(C)(C)/C=C(\C#N)C(=O)N1CCC[C@H]1Cn1nc(-c2ccc(Oc3ccccc3)cc2F)c2c(N)ncnc21
Effect on: kinase activity
MAPKAPK3: MAP kinase-activated protein kinase 3 (MAPKAPK3, Homo sapiens, UniProt Q16644)
Chain of UniProt Q16644 (whole entry, looked up): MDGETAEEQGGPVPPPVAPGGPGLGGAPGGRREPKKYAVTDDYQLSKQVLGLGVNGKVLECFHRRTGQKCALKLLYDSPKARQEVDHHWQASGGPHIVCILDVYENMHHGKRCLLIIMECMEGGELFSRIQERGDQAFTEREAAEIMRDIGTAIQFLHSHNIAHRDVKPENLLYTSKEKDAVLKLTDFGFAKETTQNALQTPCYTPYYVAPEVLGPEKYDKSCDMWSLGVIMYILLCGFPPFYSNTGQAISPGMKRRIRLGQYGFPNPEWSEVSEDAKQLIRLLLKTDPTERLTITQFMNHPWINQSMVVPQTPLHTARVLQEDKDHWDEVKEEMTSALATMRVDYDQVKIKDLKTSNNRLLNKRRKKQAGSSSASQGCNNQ
| target | concentration | inhibition [%] |
| --- | --- | --- |
| IKBKB (Homo sapiens, UniProt O14920) | 0.1 µM | -3 |
| RPS6KA1 (Homo sapiens, UniProt Q15418) | 0.1 µM | 4 |
| TTK (Homo sapiens, UniProt P33981) | 1 µM | 5 |
| PRKCG (Homo sapiens, UniProt P05129) | 0.1 µM | 1 |
| YES1 (Homo sapiens, UniProt P07947) | 1 µM | 67 |
| MAP2K1 (Homo sapiens, UniProt Q02750) | 0.1 µM | -1 |
| LTK (Homo sapiens, UniProt P29376) | 1 µM | 1 |
| DAPK1 (Homo sapiens, UniProt P53355) | 1 µM | 2 |
| PRKCQ (Homo sapiens, UniProt Q04759) | 0.1 µM | 6 |
| MAPKAPK3 | 0.1 µM | 3 |
| Tyrosine-protein kinase Lyn, isoform A (LYN, Homo sapiens, UniProt P07948) | 1 µM | 19 |
| EPHA3 (Homo sapiens, UniProt P29320) | 0.1 µM | 4 |
| PRKX (Homo sapiens, UniProt P51817) | 0.1 µM | 5 |
| SGK1 (Homo sapiens, UniProt O00141) | 0.1 µM | 17 |
| MAPKAPK3 | 1 µM | 6 |
| PIM2 (Homo sapiens, UniProt Q9P1W9) | 1 µM | -3 |
| NEK6 (Homo sapiens, UniProt Q9HC98) | 1 µM | 0 |
| FGFR4 (Homo sapiens, UniProt P22455) | 1 µM | 3 |
| BRSK2 (Homo sapiens, UniProt Q8IWQ3) | 0.1 µM | 3 |

Series 3
SMILES: COCC1CC2C(CCC3C(O)CCC32)c2ccc(O)cc21 (stereo not drawn)
| cell line | method | item | concentration | baseline | log2 fold change |
| --- | --- | --- | --- | --- | --- |
| SK-OV-3 | microarray | CDC25B | 25 µM | untreated | 0.23 |
| A549 | DNA microarray | KIF20A | 25 µM | untreated cells | -0.0302 and -0.0467 and 0.00913 and 0.00777 and -0.0242 |
| PANC-1 | microarray | PIF1 | 25 µM | untreated | 0.56 |
| PANC-1 | microarray | GZMK | 25 µM | untreated | 0 |
| SK-OV-3 | microarray | OLIG2 | 25 µM | untreated | 0 |
| SK-OV-3 | DNA microarray | ADAMTS14 | 25 µM | untreated | 1.9 |
| PANC-1 | DNA microarray | ACTB mRNA | 25 µM | control | -0.717 |
| A549 | microarray | OLIG2 | 25 µM | untreated | 0 |
| PANC-1 | microarray | OLIG2 | 100 µM | untreated | 0 |
| A549 | DNA microarray | GINS1 | 100 µM | untreated cells | -0.234 |
| PANC-1 | DNA microarray | ACTB mRNA | 100 µM | control | -0.701 |
| PANC-1 | microarray | OLIG2 | 25 µM | untreated | 0 |

Mixed results
PKMYT1: Membrane-associated tyrosine- and threonine-specific cdc2-inhibitory kinase (PKMYT1, Homo sapiens, UniProt Q99640)
Chain of UniProt Q99640 (whole entry, looked up): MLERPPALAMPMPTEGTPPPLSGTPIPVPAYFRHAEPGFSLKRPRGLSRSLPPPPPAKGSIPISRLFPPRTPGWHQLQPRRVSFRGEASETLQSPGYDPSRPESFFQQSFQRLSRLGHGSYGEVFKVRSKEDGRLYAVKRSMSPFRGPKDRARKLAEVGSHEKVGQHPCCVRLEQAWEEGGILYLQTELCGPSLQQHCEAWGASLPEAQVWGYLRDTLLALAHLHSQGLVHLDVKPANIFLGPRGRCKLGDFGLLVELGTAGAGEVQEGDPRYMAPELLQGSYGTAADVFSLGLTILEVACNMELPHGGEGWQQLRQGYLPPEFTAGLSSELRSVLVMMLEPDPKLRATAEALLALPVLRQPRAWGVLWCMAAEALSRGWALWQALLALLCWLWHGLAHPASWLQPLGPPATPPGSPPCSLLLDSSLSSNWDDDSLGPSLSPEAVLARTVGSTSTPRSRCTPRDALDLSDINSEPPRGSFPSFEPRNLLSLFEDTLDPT
| Compound | tested on | assay | test system | conditions | how to read | quantity | value |
| --- | --- | --- | --- | --- | --- | --- | --- |
| Cc1ccc(O)c(C)c1-c1cnc2[nH]c(-c3cnc(N4CCC5(CC4)CC(N4CCN(c6cc7c(cc6F)c(N6CCC(=O)NC6=O)nn7C)CC4)CO5)nc3)cc2c1C#N (racemic) | PKMYT1 | degrader, automated immunoblot (Jess) |  | 10 nM | baseline: GAPDH | protein level | 38.9% |
| Cc1ccc(O)c(C)c1-c1cnc2[nH]c(-c3cnc(N4CCC5(CC4)CC(N4CCN(c6ccc(N[C@H]7CCC(=O)NC7=O)cc6F)CC4)CO5)nc3)cc2c1C#N (single isomer, unassigned) | HCT-116 | MEK phosphorylation, paradoxical activator, item: phospho-MEK |  |  |  | EC50 | 142 nM |
| Cc1ccc(O)c(C)c1-c1cnc2[nH]c(-c3cnc(N)nc3)cc2c1C#N | PKMYT1 | immunoblotting |  | 0.1 µM, unit not given | baseline: untreated | protein level | 1.16 |
| Cc1ccc(O)c(C)c1-c1cnc2[nH]c(-c3cnc(N4CCC(CN5CCN(c6ccc7c(c6)C(=O)N(C6CCC(=O)NC6=O)C7=O)CC5)CC4)nc3)cc2c1C#N (stereo not drawn) | PKMYT1 | immunoblotting | HCC1569 | 1 µM, 16 h |  | remaining protein level | 9.06% |
